Experimental data from different studies.
A part holds a random share of what one study measured.

Set 1 — technique: RNA Bind-n-Seq; molecule type: RNA; matrix: in vitro; tested at: 1 µM; setting: whole 134-nt RNA, ends assumed; together with: 150 mM KCl; baseline: input library; reading: higher = stronger binding
Target: Ras GTPase-activating protein-binding protein 1, C-terminal RGG region (G3BP1, Homo sapiens, UniProt Q13283)
UniProt Q13283, sequence (whole entry, looked up): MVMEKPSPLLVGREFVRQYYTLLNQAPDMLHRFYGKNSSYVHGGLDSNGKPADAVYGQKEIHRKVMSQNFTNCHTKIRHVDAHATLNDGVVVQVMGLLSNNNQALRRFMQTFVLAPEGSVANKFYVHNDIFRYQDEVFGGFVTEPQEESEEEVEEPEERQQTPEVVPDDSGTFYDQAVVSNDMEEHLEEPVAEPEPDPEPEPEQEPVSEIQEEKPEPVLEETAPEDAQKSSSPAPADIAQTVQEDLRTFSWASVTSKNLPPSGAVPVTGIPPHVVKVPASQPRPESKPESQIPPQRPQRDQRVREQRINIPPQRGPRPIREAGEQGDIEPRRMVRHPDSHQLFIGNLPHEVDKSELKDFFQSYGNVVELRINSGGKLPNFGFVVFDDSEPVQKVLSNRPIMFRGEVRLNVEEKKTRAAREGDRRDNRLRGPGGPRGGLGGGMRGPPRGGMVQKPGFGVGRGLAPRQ
All sequences stand within: GGGAGUUCUACAGUCCGACGAUC … UGGAAUUCUCGGGUGUCAAGG
| Sequence | log2 enrichment |
| --- | --- |
| UUGCAGGAGCCGCCGCGCCUCGGCCUAGCAUGUCGGAAGCGGGCGAGGAGCAGCCCAUGGAGACGACGGGCGCCACCGAGAACGGACAUG | -0.956 |
| CUCAAGUCCUGUGCUACACAUCGUAUGUACCGAAUCGGUGGUUUGGUUUUUGGAAAGUAUUAUGUUACGCCGUUCGGAUCUGCACUUCCA | -0.876 |
| CUCAAGUCCUGUGCUACACAUCGUAUGUACCGAAUCGGUUUGGUUUUUGGUGGAAAGUAUUAUGUUACGCCGUUCGGAUCUGCACUUCCA | -0.998 |
| UGGUAAGAAAUCUGCUUGUUUUAUUAAAAUGCUUAAUUGAAGAAAAUAAUAUUCUUCUGUGAUUAAAAUUAGGAAGAAAUAGAACCAUUU | -1.65 |
| CCUGUGCUACACAUCGUAUGUACCGAAUCAAAUUUUUAAACCCCCCCAAACCCCCCCAAAAAAGUAUUAUGUUACGCCGUUCGGAUCUGC | -1.05 |

Set 2 — technique: aptamer microarray, sandwich; molecule type: DNA with 2'F-ANA; matrix: in vitro; tested at: 200 nM; together with: Cy3 exosite-II aptamer, 400 nM; reading: higher = stronger binding
Target: Prothrombin, mature alpha-thrombin (F2, Homo sapiens, UniProt P00734)
Setting: whole 15-mer aptamer, many near background
| Sequence | mean fluorescence intensity [a.u.] |
| --- | --- |
| GGTTGGTGTGGTTGG (2'F-ANA at 1 3 4 5 7 8 9 10 11 12 14 15) | 48 |
| GGTTGGTGTGGTTGG (2'F-ANA at 1 5 11 14 15) | 45.7 |
| GGTTGGTGTGGTTGG (2'F-ANA at 1 2 3 4 6 7 11 12 14 15) | 70.4 |
| GGTTGGTGTGGTTGG (2'F-ANA at 1 2 6 7 8 9 12 15) | 400 |

Set 3 — technique: RNA Bind-n-Seq; molecule type: RNA; matrix: in vitro; tested at: 20 nM; setting: 6-mer, flanks averaged, single round; together with: 150 mM KCl; baseline: input library; reading: higher = stronger binding
Target: TAR DNA-binding protein 43, full length, His tag (TARDBP, Homo sapiens, UniProt Q13148, residues 1-414)
| Sequence | 6-mer enrichment (R) |
| --- | --- |
| AAUCAC | 0.585 |
| CCUUUG | 0.675 |
| AGGGGG | 8.56 |
| AUUCAA | 0.566 |
| UCCAGG | 1.01 |

Further values, each from its own experiment
| Molecule | target | assay | system | conditions | how to read | measurement | result |
| --- | --- | --- | --- | --- | --- | --- | --- |
| PhoQ, residues 284 288 289 292 302 303 GNNTDL | PhoP, residues 12 14 15 18 19 LWHVM (Escherichia coli, UniProt P23836) | Sort-seq, item: YFP reporter | E. coli | PhoQ-PhoP variant library, together with: 10 µM Mg2+ | baseline: high Mg2+ state, higher = stronger signaling | fold induction | 6.48 |

Excerpt of the above (further values, each from its own experiment):
| Molecule | target | assay | system | conditions | how to read | measurement | result |
| --- | --- | --- | --- | --- | --- | --- | --- |
| PhoQ, residues 284 288 289 292 302 303 GNNTDL | PhoP, residues 12 14 15 18 19 LWHVM (Escherichia coli, UniProt P23836) | Sort-seq, item: YFP reporter | E. coli | PhoQ-PhoP variant library, together with: 10 µM Mg2+ | baseline: high Mg2+ state, higher = stronger signaling | fold induction | 6.48 |
